# Experimental data pooled from the literature.
# Lines come from different studies, so protocols differ. Several values in a cell are separate wells, animals, samples, runs or records. Numbers after ± are the reported error.
Structure (SMILES),organism,test,test system,setting,how to read,quantity,result
O=[N+]([O-])c1cc2c(ccc3c4cc([N+](=O)[O-])oc4ccc23)o1,Mycobacterium marinum,REMA,ATCC BAA-535,,,MIC90,1 µg/mL
COC(=O)N[C@H](C(=O)N1CCC[C@H]1c1ncc(-c2ccc(-c3ccc(-c4cnc([C@@H]5CCCN5C(=O)[C@@H](NC(=O)OC)C(C)C)[nH]4)cc3)cc2)[nH]1)C(C)C,Hepatitis C virus,,replicon cells,"75% effect level, with: IFN-alpha, ratio 1:1",,combination index,0.63
N=C(N)NCCC[C@H](NC(=O)[C@H](Cc1c[nH]c2ccccc12)NC(=O)[C@H](CCCNC(=N)N)NC(=O)[C@H](Cc1c[nH]c2ccccc12)NC(=O)[C@H](Cc1c[nH]c2ccccc12)NC(=O)[C@H](Cc1c[nH]c2ccccc12)NC(=O)[C@H](CCCNC(=N)N)NC(=O)[C@H](Cc1c[nH]c2ccccc12)NC(=O)[C@@H](N)CCCNC(=N)N)C(=O)N[C@@H](Cc1c[nH]c2ccccc12)C(N)=O,Candida tropicalis,broth microdilution,"CGMCC 2.192, RPMI 1640-MOPS","48 h, 30 °C",,MIC,4 µM
CS(=O)(=O)CCCn1c(Cn2c(=O)n(CC(F)(F)F)c3ccncc32)cc2cc(Cl)ccc21,respiratory syncytial virus,RT-qPCR,"hospitalized infants 1-24 months, nasal swab","oral, 8 mg/kg daily, day 7, cohort 6-24 months",baseline: placebo,LS mean difference vs placebo,1.7 log10 copies/mL
CC[C@H](C)[C@H]1O[C@]2(CC[C@@H]1C)C[C@@H]1C[C@@H](C/C=C(\C)[C@@H](O[C@H]3C[C@H](OC)[C@@H](O[C@H]4C[C@H](OC)[C@@H](O)[C@H](C)O4)[C@H](C)O3)[C@@H](C)/C=C/C=C3\CO[C@@H]4[C@H](O)C(C)=C[C@@H](C(=O)O1)[C@]34O)O2,Brugia malayi,,adult male worms,"3 µM, 24 h",,motility,92 ± 7.2%
N=C(N)c1ccc(OCc2ccc(-c3ccccc3)cc2COc2ccc(C(=N)N)cc2)cc1,Escherichia coli,checkerboard,mcr-1 polymyxin-resistant,"unit not given, with: rifampicin",lower = stronger synergy,FICI,0.047
Cn1cc(NC(=O)c2cc(NC(=O)CN=C(N)N)cn2C)cc1C(=O)NCCC(=N)N,Bacillus subtilis,bacterial cytological profiling,ATCC 6633,concentration not given,,cell area,2.41 µm² and 2.47 µm² and 2.27 µm²
CC[C@H](C)[C@H](NC(=O)[C@H](C)NC(=O)[C@H](CCCCN)NC(=O)[C@H](CC(C)C)NC(=O)[C@H](C)NC(=O)[C@@H](NC(=O)[C@H](Cc1c[nH]cn1)NC(=O)[C@H](CC(C)C)NC(=O)[C@@H](NC(=O)[C@@H](NC(=O)[C@H](CCCCN)NC(=O)[C@H](C)NC(=O)[C@H](C)NC(=O)[C@H](CO)NC(=O)[C@H](CCCCN)NC(=O)[C@H](Cc1ccccc1)NC(=O)[C@@H](NC(=O)[C@H](CCCCN)NC(=O)[C@H](CC(C)C)NC(=O)[C@H](Cc1ccccc1)NC(=O)[C@H](CO)NC(=O)[C@H](CCCCN)NC(=O)[C@H](Cc1c[nH]c2ccccc12)NC(=O)[C@H](CCCCN)NC(C)=O)[C@@H](C)O)[C@@H](C)O)C(C)C)[C@@H](C)O)C(=O)N[C@@H](CO)C(=O)N[C@@H](CO)C(N)=O,Acinetobacter baumannii,,IPM-R,87 strains,,MIC90,8 µg/mL
O=C(NNc1ccc(Cl)cc1)c1nnc(C23CC4CC(CC(C4)C2)C3)o1,Botryosphaeria dothidea,"fungal growth, inhibitor",,50 µg/mL,,inhibition,100%
Cl.N/C(CC(O)c1cc2c(F)cc(F)cc2c2cc(C(F)(F)F)ccc12)=N\c1ccc(F)cc1 (stereo not shown),Plasmodium berghei,Peters test,"ANKA, mice","oral, 4 x 3 mg/kg",,mean survival time,20 days
C[C@H]1COCCN1c1nc(NCc2cccnc2C(F)(F)F)c2cccnc2n1,Brugia malayi,,SCID mouse,"x14d dosing, 6 weeks post-treatment",,mice with adult worms,80%
Cl.N=C(CC(O)c1cc2c(F)cc(F)cc2c2cc(C(F)(F)F)ccc12)Nc1ccc(F)c(F)c1 (stereo not shown),Plasmodium berghei,Peters suppressive test,"ANKA, infected mice","oral, 4 x 30 mg/kg, day 4",baseline: untreated control,parasitemia reduction,99.8%
Cn1c(=O)ccc2ccc(F)c(CCNC[C@H]3CN(c4cnc5c(n4)NC(=O)CO5)C(=O)O3)c21,Citrobacter spp.,,,,,MIC50,0.25 µg/mL

# Repeated from above:
Structure (SMILES),organism,test,test system,setting,how to read,quantity,result
N=C(N)c1ccc(OCc2ccc(-c3ccccc3)cc2COc2ccc(C(=N)N)cc2)cc1,Escherichia coli,checkerboard,mcr-1 polymyxin-resistant,"unit not given, with: rifampicin",lower = stronger synergy,FICI,0.047
Cn1cc(NC(=O)c2cc(NC(=O)CN=C(N)N)cn2C)cc1C(=O)NCCC(=N)N,Bacillus subtilis,bacterial cytological profiling,ATCC 6633,concentration not given,,cell area,2.41 µm² and 2.47 µm² and 2.27 µm²
